Measurements gathered from unrelated publications.
Each line is one published result; not all experiments were run side by side. ± gives the spread as reported.

| Structure (SMILES) | tested on | test | test system | conditions | how to read | quantity | value |
| --- | --- | --- | --- | --- | --- | --- | --- |
| CC[C@H](C)[C@H](NC(=O)CN)C(=O)N[C@@H](C)C(=O)N[C@@H](CCCCN)C(=O)N[C@@H](Cc1ccccc1)C(=O)N[C@H](C(=O)N[C@@H](CCCCN)C(=O)N[C@@H](CCCCN)C(=O)N[C@H](C(=O)N[C@@H](C)C(=O)N[C@@H](CCCCN)C(=O)N[C@@H](C)C(=O)N[C@@H](CC(C)C)C(=O)N[C@@H](CCCNC(=N)N)C(N)=O)[C@@H](C)CC)[C@@H](C)CC | – | circular dichroism at 222 nm | 10 mM SDS | 100 µM, pH 4.0 | – | mean residue ellipticity | -10900 deg cm2/dmol |
| Cc1cc(Nc2cc3ncccc3c(N[C@@H]3C[C@H]4CC[C@@H](C3)N4CCC#N)n2)n[nH]1 | – | – | healthy human subjects | oral, 100 mg, 14 days, multiple ascending dose | – | pruritus incidence | 0% |
| COc1ncc(-c2nc3c(n2C(C)C)[C@H](c2ccc(Cl)cc2)N(c2cc(Cl)cn(C)c2=O)C3=O)c(OC)n1 | – | LC-MS/MS | human, plasma | oral, 12.5 mg, cycle 2 day 1, high-dose arm | – | Cmax | 121 ng/mL |
| COc1ccc(C[C@@H](C)[C@@H](C)Cc2ccc(OC)c(OC)c2)cc1OC | – | – | beagle dog male, plasma | oral, 1000 mg/kg/day, day 1 | – | Cmax | 2770 ± 548 ng/mL |
| Cc1c(-c2ccc(N3CCc4cccc(C(=O)Nc5nc6ccccc6s5)c4C3)nc2C(=O)O)cnn1CC12CC3(C)CC(C)(C1)CC(OCCNCC[C@H](O)CO)(C3)C2 | – | – | beagle dog, male, anaesthetised | intravenous infusion, 0.3 mg/kg/min, 90 min | baseline: vehicle | QTcV interval change | 16 ms |
| COCc1cc(C(=O)Nc2cc([C@H]3CC[C@@H](OC(=O)NC(C)C)C3)[nH]n2)n(C)n1 | – | – | OVCAR-3 xenograft, NOD/SCID gamma mice, plasma | oral, 175 twice daily, tumour growth inhibition study | – | unbound C24h | 373 nM |
| N#Cc1ccc2c(c1)[C@H]1CCCN(C(=O)c3ccc4[nH]cnc4c3)[C@H]1C2 | – | – | human females | 40 mg, day 7 | – | total testosterone level | 1.1 nmol/L |
| CC(C)NCC(O)COc1cccc2ccccc12 (stereo not shown) | – | – | male Hartley guinea pigs, anaesthetized | intravenous, 0.3 mg/kg over 10 min, after infusion | – | mean blood pressure | 41 ± 0.1 mmHg |
| C=CCN1CC(=O)N2[C@@H](Cc3ccc(O)cc3F)C(=O)N(Cc3cccc(N4CC(N5CCN(CC)CC5)C4)n3)C[C@@H]2N1C(=O)NCc1ccccc1 | – | – | advanced solid tumour patients | oral, 100 mg twice daily, grade ≥3, dose-escalation | – | treatment-related diarrhoea | 0% |
| Cc1cccc(CNC(=O)c2cn(CCNC(=O)c3ccccc3Sc3c([N+](=O)[O-])ncn3C)c3cc4c(cc3c2=O)OC(F)(F)O4)n1 | – | – | Sprague-Dawley rat, male, plasma | intravenous, 5 mg/kg | – | C0 | 1460 ± 94.7 ng/mL |
| Cc1ccc(O)c(-n2nc3ccccc3n2)c1 | – | exposure assessment | human, age 1-2 years | spray sunscreen | – | mean daily dermal uptake | 1410 ng/kg body weight/day |
| O=C(NC1CCCCC1)c1ncccc1O | – | – | – | – | – | pKa (acidic) | 7.8 |
| CCN1/C(=C/C(C)=O)Sc2ccc(F)cc21 | – | – | cynomolgus monkey | oral, 30 mg/kg, 1 h post-dose | – | QTc interval (Bazett) | 328 ± 18 ms |
| CCc1cc(C(=O)NC)c2nccc(N3CCc4c(cc(Cn5ccnc5)cc4-c4cn(C)nc4C(F)(F)F)C3=O)c2c1 | – | – | Sprague Dawley rats | oral, 100 mg/kg twice daily, 7 days | baseline: vehicle | serum MCHC change | 2.59% |
| O=C(Nc1nc2cccc(-c3ccc(CN4CCS(=O)(=O)CC4)cc3)n2n1)C1CC1 | – | measured: thrombocytopenia | rheumatoid arthritis patients | oral, 150 mg once daily, 4 weeks, any relatedness | – | treatment-emergent adverse events | 0% |
| Nc1ccn([C@@H]2O[C@H](CO)[C@@H](O)C2(F)F)c(=O)n1 | – | – | Sprague-Dawley rat, male, plasma | intraperitoneal, 5 mg/kg | – | CL/F | 1.12 ± 0.23 (mg/kg)/(µg/mL)/h |
| Cl.[2H]C([2H])([2H])CC(=O)c1cnc(NC(=O)C2CC2)cc1Nc1cccc(-c2ncn(C([2H])([2H])[2H])n2)c1OC | – | geometric mean | human | oral, 40 mg twice daily, day 7, fed, liquid, multiple dose | – | AUC(0-tau) | 3690 ng·h/mL |
| CN[C@@H](C)C(=O)N[C@H]1CN(S(=O)(=O)c2cccc(S(=O)(=O)N3CC[C@H]4CC[C@@H](C(=O)NC(c5ccccc5)c5ccccc5)N4C(=O)[C@@H](NC(=O)[C@H](C)NC)C3)c2)CC[C@H]2CC[C@@H](C(=O)NC(c3ccccc3)c3ccccc3)N2C1=O | – | LC-MS/MS | human, advanced solid tumours, plasma | intravenous, 0.3 mg weekly, day 15 | – | AUC(0-t) | 10.3 ± 5.97 ng·h/mL |
| CC(C)C[C@H](NC(=O)CNC(=O)c1cc(Cl)ccc1Cl)B(O)O | – | measured: Insomnia | human newly diagnosed multiple myeloma | oral, dose not given, maintenance, grade 3, onset cycle 17 or later | – | treatment-emergent adverse events | 0% |
| NC(=O)N1c2ccccc2C=Cc2ccccc21 | – | – | human | concentration not given | – | ALT increase resolution time | 20 days |
| CCc1cc(/C(C)=N/OCc2ccc(C3CCCCC3)c(C(F)(F)F)c2)ccc1CN1CC(C(=O)O)C1 | – | – | – | – | – | pKa (basic) | 8.5 |
| Cc1cc(-c2nccc3c2ccn3CC(=O)Nc2ccc(-c3cnccn3)cn2)ccn1 | – | – | human | 5 mg once daily, multiple ascending dose | – | subjects with infections | 12.5% |
| O=C(O)CCC(=O)O.[2H]C([2H])([2H])Oc1cc(C)c2[nH]ccc2c1CN1CC[C@@H](C2CC2)C[C@H]1c1ccc(C(=O)O)cc1 | – | – | healthy Chinese subjects | 400 mg, single ascending dose | – | TEAE urine bacteria positive | 0% |

| Structure (SMILES) | tested on | test | test system | conditions | how to read | quantity | value |
| --- | --- | --- | --- | --- | --- | --- | --- |
| Cc1nc(O)n2ncc(Br)c2n1 | – | – | sheep erythrocytes | 1 h, pH 7.5 | – | maximum haemolysis | 2.5% |
| Cn1cc(Nc2nccc(-c3ccc4c(c3)CN(C3COC3)CC[C@H]4NC(=O)c3cn(C(C)(C)C)nn3)n2)cn1 | – | – | human, whole blood | 50 mg twice daily, day 7 | baseline: pre-dose baseline | CD8+ T cell count change | 21.9% |
| Cc1ccc([C@@H]2O[C@H](CO)[C@@H](O)[C@H](O)[C@H]2O)cc1Cc1ccc(-c2ccc(F)cc2)s1 | – | measured: inorganic phosphorus | Japanese type 2 diabetes patients | 200 mg, day 5, 24 h urine collection | baseline: baseline | urinary phosphate excretion change | 74.7 mg |
| CCn1c(C(=O)N(C2CC2)C2CC2)cc2c3c(ncn3C)c(Nc3cc(C)n(C)n3)nc21 | – | – | cancer patients | oral, 200 mg twice daily, day 15, 338.0 h | – | plasma concentration | 7770 ng/mL |
| CC[C@H]1CN2CCc3cc(OC)c(OC)cc3[C@@H]2C[C@@H]1C[C@H]1NCCc2cc(OC)c(OC)cc21 | Toxoplasma gondii | tachyzoite growth, luciferase | ME49-Fluc, type II | – | – | EC50 | 30 nM |
| Cc1ccc(C(=O)Nc2ccnc(S(N)(=O)=O)c2)c(N2CCCC(F)(F)CC2)n1 | – | – | rhesus monkey, plasma | intravenous, dose not given, 30 min | – | unbound plasma concentration | 178 ± 11.5 nM |
| CCc1cc2ncc(CN3CCN(c4ccc(C(=O)NC)nc4)CC3)cc2[nH]c1=O | – | – | female rat, blood | oral, 25 mg/kg/day, 4 weeks | baseline: vehicle control | white blood cell count ratio | 0.72 |
| Cc1cc(NC(=O)c2cccc(NC(=O)/C=C/CN(C)C)c2)ccc1Nc1nccc(-c2cccnc2)n1 | – | – | rat Wistar male, plasma | 1 µM, 30 min | – | remaining compound | 89.3% |
| O=C(OC(C(F)(F)F)C(F)(F)F)N1CCN(Cc2cccc(Oc3ccccc3)c2)CC1 | – | PET blocking study | rhesus monkey, brain CB | 0.3 mg/kg, compound pretreatment, added: [18F]T-401 tracer | – | k2 | 0.887 min⁻¹ |
| CNc1ccc(-c2nc3ccc(O)cc3s2)cc1 [carbon-11 labelled] | – | ex vivo biodistribution | B6SJL mouse, normal, bladder | intravenous, 30 min | – | SUV | 5.85 ± 4.37 |
| CC(C)(C(=O)N1CCOc2c(C#N)cncc2C1)C(F)F | – | measured: Vascular disorders | human | oral, 20 mg once daily, 14 days, multiple ascending dose | – | subjects with adverse event | 0% |
| Cc1cc(NC2CCN(C(=O)OC3CCN(C(=O)/C=C/CN(C)C)C3)CC2)n2ncc(C(C)C)c2n1 (stereo not shown) | – | CTCAE v4.0, measured: Anemia | patients with advanced solid tumours | oral, dose not given, all schedules, grade 3 or higher | – | patients with TEAE | 9% |
| CC(=O)[C@]1(O)Cc2c(O)c3c(c(O)c2[C@@H](O[C@H]2C[C@H](N)[C@H](O)[C@H](C)O2)C1)C(=O)c1ccccc1C3=O | Toxoplasma gondii | bradyzoite growth | – | pH 8.2, alkaline-induced bradyzoites | – | EC50 | 300 nM |
| CNCc1ccc(-c2[nH]c3cc(F)cc4c3c2CCNC4=O)cc1 | – | – | patients | oral, 600 mg twice daily, grade 2 | – | constipation incidence | 0% |
| Cc1ccc(C(=O)N(CCCN)C(c2nc3snc(C)c3c(=O)n2Cc2ccccc2)C(C)C)cc1 (stereo not shown) | – | – | human patients | intravenous, 16 mg/day | – | patients with CTCAE grade ≥3 events | 71% |
| CCN1CCN(Cc2ccc(NC(=O)c3ccc(C)c(NC(=O)c4cncc(-c5cccs5)c4)c3)cc2C(F)(F)F)CC1 | – | LC-MS/MS | C57BL/6 mouse, plasma | intraperitoneal, 10 mg/kg single dose, 6 h | – | mean plasma concentration | 42 ng/mL |
| O=C(c1cc(Cc2n[nH]c(=O)c3ccccc23)ccc1F)N1CCN(C(=O)C2CC2)CC1 | – | HPLC-MS/MS | human patients, plasma | oral, 25 mg tablets, cycle 1 day 0, mean, dose level -1 | – | AUC(0-12 h) | 4310 ng·h/mL |
| CCCCc1oc2ccccc2c1C(=O)c1cc(I)c(OCCN(CC)CC)c(I)c1 | – | – | male Hartley guinea pigs, anaesthetized | intravenous, 20 mg/kg over 10 min, after infusion | – | mean blood pressure | 35 ± 0.5 mmHg |
| CCC(=O)NCC[C@@H]1CCc2cc(O)c3c(c21)CCO3 | – | sulfation, substrate | pooled human kidney cytosol | 50 µM, 30 min, added: 50 mM NaF | – | specific activity | 0.8 ± 0.01 pmol/min/mg |
| Cc1ccc(Sc2ccccc2N2CCNCC2)c(C)c1 | – | measured: blood creatine phosphokinase increased | healthy adult men | oral, 5 mg daily, 12 days | – | participants with TEAE | 0% |
| C[C@H](CS)C(=O)N1CCC[C@H]1C(=O)O | – | – | male Hartley guinea pigs, anaesthetized | intravenous, 3 mg/kg over 10 min, after infusion | – | mean blood pressure | 25 ± 0.1 mmHg |
| CC(C)c1nc(N(C)S(C)(=O)=O)nc(-c2ccc(F)cc2)c1/C=C/[C@@H](O)C[C@@H](O)CC(=O)O | – | – | Wistar albino rat, both sexes, plasma | oral, 20 mg/kg, 3 h | – | plasma concentration | 717 ng/mL |
| C=CC(=O)N1CCC[C@@H](n2c(=O)n(-c3ccc(Oc4ccccc4)cc3)c3c(N)nccc32)C1 | – | – | human | oral, 300 mg | baseline: fed over fasted | AUC(0-last) fed/fasted ratio | 1.12 |
